Published values gathered from unrelated publications.
Numbered parts are unrelated; each lists some results of a single study.

Sample 1
Target: Phosphate system positive regulatory protein PHO4, full length, GST-tagged (PHO4, Saccharomyces cerevisiae, UniProt P07270, residues 1-312)
Method: competition protein-binding microarray
Molecule type: double-stranded DNA, one strand shown
Medium: in vitro
Tested at: 2 µM
Setting: whole 60-bp probe, lowest competitor level
Together with: Cbf1 competitor, 0.05 µM
Reading: higher = stronger binding
Measurement: fluorescence intensity
All sequences stand within: … GTCTTGATTCGCTTGACGCTGCTG
Construct (chain): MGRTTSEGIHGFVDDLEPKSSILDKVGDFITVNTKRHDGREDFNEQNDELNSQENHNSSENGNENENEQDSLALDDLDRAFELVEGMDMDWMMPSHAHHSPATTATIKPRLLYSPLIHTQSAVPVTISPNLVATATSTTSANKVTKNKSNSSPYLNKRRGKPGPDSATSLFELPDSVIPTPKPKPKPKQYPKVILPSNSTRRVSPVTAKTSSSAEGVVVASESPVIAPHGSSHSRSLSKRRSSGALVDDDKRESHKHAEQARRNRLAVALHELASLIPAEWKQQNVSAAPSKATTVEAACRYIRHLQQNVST
CAGAGTGGTTTATGTCAGGTGGTATTGCCTTGGATC: 5110 a.u.
AAAGCGGTAATTTGCAACGTGGGTGCAGATATCTAT: 14700 a.u.
TGTTCATTCATTATTCAATGCAAAGTATAAAGACAG: 4120 a.u.
TTTCGATGGTTAGGCTTCGTGGGTAAAAAGTCGAGC: 5780 a.u.
AAATTACTAAGTTGGAGGGTGGGTGACGCCGTATGA: 4430 a.u.
CTAACGAAGGTTTGTCACGACACTTACAAGCCAAGT: 4690 a.u.
GTCAACGCAGATTTGCAGATGCAAGCAAGAATACAT: 4230 a.u.
GGGGAGGATGATTTTCATGTGCGAATATCTACCGGC: 4760 a.u.
CGTCCTAGTGATTTTCACGTGGTGTCCATGAGGAAG: 14400 a.u.
TGCGCAACAACTTGACGGGTGGGTGTATGTCTAGAA: 5240 a.u.
TCTCAAGATCTGTTCCTCGTGGCCGAATGGTTACGG: 10800 a.u.
AAGATGAGCTAAACTCTCGTGGATTAAATTTAAGCG: 6490 a.u.
CTTTCCCGATCTTGCTCTGTGGGTGTAGCACATTTG: 4160 a.u.
AAATTACTAAGTTTTCACGTGTTGTACCCCGTATGA: 15100 a.u.
AAATTACTAAGTTGGGGCGTGGGTGACGCCGTATGA: 8870 a.u.
TACTTTTGATGACTGTTTCTCAACTCCATGTCATTC: 3450 a.u.
AAAAGTTTGTAGCCACTCGTGAAGTTCTCTGTATGT: 5350 a.u.
GTCTTGTCTCATTGTCGTGTGGGTGTCCCCACTTCA: 6310 a.u.
AACTGTGAAAGGTTCCACGTGGCCGGGTGAGATTCG: 15300 a.u.
TACACTTCGTATTTGCACGATATGTTTCCCTTTTAA: 6360 a.u.
TTGTCTGTGCATTGGCATGCGCAAGCATTCGATGAA: 7170 a.u.
TCGCGTTTCTCCAGCCACGTGCTTTTAACCTAAATA: 19700 a.u.
CTAACGAAGGTTTGTCACTTTACTTACAAGCCAAGT: 3010 a.u.
CTGTCGAAGAGTAGTCACCTGTTCCAACTAAGATAG: 5770 a.u.

Sample 2
Target: PABPC1L2, full length, GST fusion (mouse, UniProt A0ABA7IW68)
Method: RNAcompete
Molecule type: RNA
Medium: in vitro
Tested at: 20 nM
Setting: 7-mer, probes averaged, single round
Relative to: mean of 7-mers
Reading: higher = stronger binding
Measurement: 7-mer Z-score
Residues (chain): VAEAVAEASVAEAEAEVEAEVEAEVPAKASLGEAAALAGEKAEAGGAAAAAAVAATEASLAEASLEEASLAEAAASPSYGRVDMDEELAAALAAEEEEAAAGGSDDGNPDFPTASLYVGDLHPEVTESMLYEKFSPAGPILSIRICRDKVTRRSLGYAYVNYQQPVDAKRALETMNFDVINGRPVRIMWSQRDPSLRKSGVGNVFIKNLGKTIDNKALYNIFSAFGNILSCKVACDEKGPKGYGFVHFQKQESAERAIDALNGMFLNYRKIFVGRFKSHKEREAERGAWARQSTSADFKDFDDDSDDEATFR
AGAGAAG: 0.149
GCUGUAA: -0.0917
GGCAAUU: 0.00979
UGUAGGG: 0.231
CUUACGC: -0.449
UUGGGCG: -0.0228
GUUGCUC: -0.443
CGUAAGA: -0.264
AGCGGGA: 0.267
AGAAAAC: 3.12
UUGGAGG: 0.126
CCCUUUA: 0.0805
CAAAAUU: 1.83
GAACGAC: 0.00617
CAACGAA: 0.233
UUGCCCC: -0.394
ACGCCAA: -0.159
GCGACCG: 0.0877
AGAAGGG: 0.488
CGGCGUC: -0.229
CUUGUAU: -0.257
AGCAGGU: 0.0152
CCACCAC: -0.166
GACGGCC: -0.117
UGAUUCA: -0.157

Sample 3
Organism: Saccharomyces cerevisiae
Observed: binding
Method: competitive growth deep sequencing
Molecule type: peptide
Strain: cyclin E1-Cln2 fusion strain
Tested at: concentration not given
Setting: peptide library 2
Reading: direction not given
Measurement: growth enrichment score
PSSMRKICTYFHR: 1.3
GFGFLLFICKLTF: 1.23
PPVIIKYIIINRF: 0.355

Sample 4
Target: Sal-like protein 4, full length isoform A (SALL4, Homo sapiens, UniProt Q9UJQ4, residues 1-1053)
UniProt Q9UJQ4, sequence (whole entry, looked up): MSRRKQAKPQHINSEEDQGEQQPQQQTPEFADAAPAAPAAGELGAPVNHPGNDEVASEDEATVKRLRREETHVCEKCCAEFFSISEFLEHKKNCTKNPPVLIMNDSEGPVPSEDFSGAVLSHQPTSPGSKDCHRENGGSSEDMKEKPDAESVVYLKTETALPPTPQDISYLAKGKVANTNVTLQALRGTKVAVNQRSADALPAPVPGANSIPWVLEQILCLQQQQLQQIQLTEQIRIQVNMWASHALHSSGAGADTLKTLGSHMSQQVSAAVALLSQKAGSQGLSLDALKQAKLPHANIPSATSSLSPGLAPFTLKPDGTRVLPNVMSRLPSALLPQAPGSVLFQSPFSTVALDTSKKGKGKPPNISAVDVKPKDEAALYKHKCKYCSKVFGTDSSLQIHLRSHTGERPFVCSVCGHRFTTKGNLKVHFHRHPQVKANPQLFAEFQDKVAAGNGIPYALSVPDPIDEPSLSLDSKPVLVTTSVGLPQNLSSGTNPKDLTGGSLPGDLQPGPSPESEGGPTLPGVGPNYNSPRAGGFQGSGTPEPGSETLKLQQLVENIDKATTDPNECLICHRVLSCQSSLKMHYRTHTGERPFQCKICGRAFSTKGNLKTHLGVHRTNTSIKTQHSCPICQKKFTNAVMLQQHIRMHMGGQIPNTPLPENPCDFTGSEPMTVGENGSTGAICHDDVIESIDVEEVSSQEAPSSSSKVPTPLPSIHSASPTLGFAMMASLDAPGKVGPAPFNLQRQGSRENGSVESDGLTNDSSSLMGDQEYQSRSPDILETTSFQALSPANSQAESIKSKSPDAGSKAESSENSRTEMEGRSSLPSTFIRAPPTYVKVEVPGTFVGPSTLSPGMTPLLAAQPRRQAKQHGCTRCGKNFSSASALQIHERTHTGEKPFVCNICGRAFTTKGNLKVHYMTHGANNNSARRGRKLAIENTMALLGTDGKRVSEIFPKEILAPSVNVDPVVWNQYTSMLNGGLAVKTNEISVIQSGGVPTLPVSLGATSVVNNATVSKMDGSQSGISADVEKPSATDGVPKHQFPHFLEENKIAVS
Method: universal PBM
Molecule type: double-stranded DNA, one strand shown
Medium: in vitro
Tested at: 600 nM
Setting: 8-mer, flanks averaged, mean of replicates
Reading: higher = stronger binding
Measurement: E-score
CTACCCTC: -0.0905
TGCAGACA: 0.111
CAAAATAG: 0.15
AAAGATCC: 0.0111
ACGTATAC: 0.166
AACACGAG: 0.0116
GTGCACAA: -0.0472
CCGTACGG: -0.318
GGTACCGA: -0.291
ACTATGTG: 0.15
ATTAAATA: 0.438
TAGTCAGA: 0.0233
ACTCGCAT: 0.00643
AAATACGA: 0.28
ATGTGAGG: 0.0372
CGAGAATC: -0.0845
CAGCACCA: -0.194
CTCTTCTA: -0.0382
CCAGATAA: 0.202
CTATTCCC: -0.0939
GAATAAGC: 0.116
CTACCCAA: 0.068
AGACATTC: 0.183
CCGTTACC: -0.079

Sample 5
Target: Ras GTPase-activating protein-binding protein 1, C-terminal RGG region (G3BP1, Homo sapiens, UniProt Q13283)
UniProt Q13283, sequence (whole entry, looked up): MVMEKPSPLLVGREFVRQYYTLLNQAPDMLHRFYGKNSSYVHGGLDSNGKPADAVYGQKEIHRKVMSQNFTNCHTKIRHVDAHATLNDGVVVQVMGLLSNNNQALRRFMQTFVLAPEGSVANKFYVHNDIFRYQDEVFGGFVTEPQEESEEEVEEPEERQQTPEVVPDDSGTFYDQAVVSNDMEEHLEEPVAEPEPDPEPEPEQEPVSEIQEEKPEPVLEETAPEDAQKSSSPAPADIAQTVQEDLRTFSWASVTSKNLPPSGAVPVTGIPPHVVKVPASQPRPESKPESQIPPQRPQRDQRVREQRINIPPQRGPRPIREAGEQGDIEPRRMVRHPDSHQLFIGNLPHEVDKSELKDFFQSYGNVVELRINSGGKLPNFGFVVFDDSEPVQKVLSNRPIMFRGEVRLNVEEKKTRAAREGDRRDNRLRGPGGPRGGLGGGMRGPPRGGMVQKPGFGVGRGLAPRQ
Method: RNA Bind-n-Seq
Molecule type: RNA
Medium: in vitro
Tested at: 1 µM
Setting: whole 134-nt RNA, ends assumed
Together with: 150 mM KCl
Relative to: input library
Reading: higher = stronger binding
Measurement: log2 enrichment
All sequences stand within: GGGAGUUCUACAGUCCGACGAUC … UGGAAUUCUCGGGUGUCAAGG
ACCAUGCAGGUGGGGAUCUUUGGGAAGUGGGGCAAGGGGGGGAUAGGGAGGGGGGUAACACUUUGGGAACAGGUGGUCCCAGGUCGUUUC: -1.56
UUGAUUGAUAUUACAGGCAAGAACCAGGAUGAAUGUGUGAUUGCUUUGCAUGACUGCAAUGGAGAUGUCAACAGAGCUAUCAAUGUUCUU: -2.23
AAGUCCUGUGCUACACAUCGUAUGUACCGAAUCGGGCCCCGGGGCCCCGGGCCCCGGAAAGUAUUAUGUUACGCCGUUCGGAUCUGCACU: -1.61
UCCUGUGCUACACAUCGUAUGUACCGAAUCGGGAAAAAAAGGGUUUUUUUGGGUUUGGGAAAGUAUUAUGUUACGCCGUUCGGAUCUGCA: -0.915
UGUGUUGUGCUCAUUACCAGUGCAGCGACUGCCGUCCCAGGGUGACUCUGAGUUGUCCUUUAUCGUGAGCUAGCAAUGGCUAGCGAAGAC: -1.27
UCCUGUGCUACACAUCGUAUGUACCGAAUCGGAAAAAAGGGAAAAAAGGGAAAAAAGGGAAAGUAUUAUGUUACGCCGUUCGGAUCUGCA: -1.12
CCUGUGCUACACAUCGUAUGUACCGAAUCGGGAAAAAAAGGGUUUUUGGGUUUUUUUGGGAAAGUAUUAUGUUACGCCGUUCGGAUCUGC: -1.69
AGUCCUGUGCUACACAUCGUAUGUACCGAAUCGGGGUUUGGGGUUUUUGGGGUGGGGAAAGUAUUAUGUUACGCCGUUCGGAUCUGCACU: 2
ACCAUGCAGGUGGGCAUCUUUGGGAAGUGGGGCAAGGGGGGGAUAGGGAGGGGGGUAACACUUUGCGAACAGGUGGUCCCAGGUCGUUUC: 2.26
UGGCCCUGGUGGCAUGCGGGGAGGAAGAGGUGGCCUCUUGGAUCGUGGUGGUCCCGGUGGAAUGUUCAGAGGUGGCCGUGGUGGAGACAG: 2.21
UAUCUUUAGAGGAGGAUCUGAUGGAUAUGGCAGUGGACGUGGAUUUGGGGAUGGCUAUAAUGGGUAUGGAGGAGGACCUGGAGGUGGCAA: -1.5
ACCAUGCAGGUGGGCAUCUUUGGGAAGUGGGGCAAGGGGGGGAUAGGGAGGGGGGUAACACUUUGGGAACACGUGGUCCCAGGUCGUUUC: 2.9
GCAGGAAGUAAAAACAAAUGGAAAUGCUUCGGAUAGUGGCAGGGGUGGGAGUUGCUAAGGAAAGGGUGGGAUGGGAGUGGGUAAAGAGUU: 2.54
CAAGUCCUGUGCUACACAUCGUAUGUACCGAAUCGGUUUGGGUUUGGGUUUGGGGAAAGUAUUAUGUUACGCCGUUCGGAUCUGCACUUC: -0.797

Sample 6
Target: Interferon regulatory factor 7, full length, phosphomimetic (IRF7, Homo sapiens, UniProt Q92985, residues 1-503, S471D/S472D/S475D/S476D/S477D/S483D/S484D/S487D)
UniProt Q92985, sequence (whole entry, unmodified, looked up): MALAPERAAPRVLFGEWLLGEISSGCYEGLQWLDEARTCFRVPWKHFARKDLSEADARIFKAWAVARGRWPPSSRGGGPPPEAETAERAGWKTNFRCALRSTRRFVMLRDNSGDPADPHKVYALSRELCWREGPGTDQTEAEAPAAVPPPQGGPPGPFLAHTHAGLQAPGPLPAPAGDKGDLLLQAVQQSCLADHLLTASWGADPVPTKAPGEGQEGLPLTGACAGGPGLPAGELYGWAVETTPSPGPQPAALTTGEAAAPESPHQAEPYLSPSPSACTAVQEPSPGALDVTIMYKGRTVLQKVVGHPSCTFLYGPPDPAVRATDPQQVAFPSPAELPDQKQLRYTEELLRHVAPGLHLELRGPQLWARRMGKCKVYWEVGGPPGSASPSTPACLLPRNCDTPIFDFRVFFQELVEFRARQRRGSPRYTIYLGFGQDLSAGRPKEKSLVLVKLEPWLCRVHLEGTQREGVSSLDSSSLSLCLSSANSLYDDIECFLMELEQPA
Method: protein-binding microarray
Molecule type: double-stranded DNA, one strand shown
Medium: in vitro
Tested at: 2200 nM top
Setting: 60-bp whole probe
Together with: salmon DNA 0.4 mg/ml
Relative to: random background probes
Reading: higher = stronger binding
Measurement: fitted relative affinity
All sequences stand within: GCCTAGCAC … GTCTTGATTCGCTTGACGCTGCTG
GGAGGAGCGGGACTGCCACCGTGCTAG: -1.01 z-score
TCATATGTGTATATATAACTGTGCTAG: 1.03 z-score
GACGGTTTCGACTATCGAGACGTGCTA: 3.17 z-score
TTAGGTATCGAGACTGGGTTAGTGCTA: -0.144 z-score
GACGGACGGCTTCTCCTGACGTGCTAG: -0.398 z-score
CTGGAGGTTGGGCAAGGCCCGTGCTAG: -1.62 z-score
ATTTTGAGGTGGAGAGATAAGTGCTAG: -0.247 z-score
TCCTCTCTCTTTCCACTTGTGTGCTAG: 3.94 z-score
GAAGGTTTCGGTATCGGGACGTGCTAG: 7.26 z-score
TTTTGAAGTTTGGCGTTGACGTGCTAG: 0.179 z-score
GACGAACTGGGGTTTCGAGATGTGCTA: 1.39 z-score
TTATGACTGGGGTATCGGTTAGTGCTA: 0.19 z-score
GACGGTATCGCCTTTCGGGACGTGCTA: 1.12 z-score
TTAGGTATCGCGTTTCGGTTAGTGCTA: 2.8 z-score
TTAGGCTTCCTTCTCCTTTAGTGCTAG: 0.812 z-score
TTAGGTATCCTTCTGCTTTAGTGCTAG: 0.988 z-score
GACGGACTGGCTTTCGGGACGTGCTAG: 1.42 z-score
GGCGGTATCGGTTTCGGGACGTGCTAG: 3.37 z-score
TTAGGTTTCCTTTCCCTGTAGTGCTAG: 4.41 z-score
TTAGATTACAGTCTCGATTAGTGCTAG: 0.505 z-score

Sample 7
Target: Histone acetyltransferase KAT6A, both winged helices, GST fusion (KAT6A, Homo sapiens, UniProt Q92794, residues 1-181)
Method: protein binding microarray
Molecule type: double-stranded DNA, one strand shown
Medium: in vitro
Tested at: not given
Setting: 8-mer, flanks averaged, mean of 2 arrays, mostly near background
Relative to: not given
Reading: higher = stronger binding
Measurement: E-score
Residues (chain): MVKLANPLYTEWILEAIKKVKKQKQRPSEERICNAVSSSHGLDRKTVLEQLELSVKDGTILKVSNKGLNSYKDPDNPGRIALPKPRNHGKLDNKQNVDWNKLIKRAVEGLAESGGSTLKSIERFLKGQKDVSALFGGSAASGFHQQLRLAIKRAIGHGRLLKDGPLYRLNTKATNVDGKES
GAGGGTCA: -0.0964
ATAACATA: -0.022
GCTCGGAA: 0.123
AGTGGACG: -0.0653
GTACCCTA: -0.227
AGAAGAGC: -0.0225
GCCGCGGA: 0.379
GGTATCAC: -0.0815
AATCAGCT: -0.191
TGTGTCAA: -0.0292
CCCAACCC: -0.144
ACGACCCG: 0.201
GGTGACAA: 0.0511
ATGTCGTC: -0.122
CTCAGCAC: -0.161
CAATCTAC: -0.0106
CGTTCTGC: 0.105
AAGACCGT: 0.135
AAATTACA: 0.00579
GCGCTAGC: 0.19
TGCTACAA: -0.192
ATACATAA: -0.121
ATGTTCGC: 0.136
GAACCGCA: 0.156
TAGGCAAA: -0.222

Excerpt of the above (sample 4):
CTATTCCC: -0.0939
ACGTATAC: 0.166
CCGTTACC: -0.079
ATGTGAGG: 0.0372
CAGCACCA: -0.194
GTGCACAA: -0.0472
CGAGAATC: -0.0845
CTACCCTC: -0.0905
TAGTCAGA: 0.0233
CAAAATAG: 0.15
GGTACCGA: -0.291
CCGTACGG: -0.318
